Assay results of several laboratories.
Parts stem from different laboratories: compare values within a part only. Several values in a cell are separate wells, animals, samples, runs or records.
Sequence of UniProt P51955 (whole entry, looked up): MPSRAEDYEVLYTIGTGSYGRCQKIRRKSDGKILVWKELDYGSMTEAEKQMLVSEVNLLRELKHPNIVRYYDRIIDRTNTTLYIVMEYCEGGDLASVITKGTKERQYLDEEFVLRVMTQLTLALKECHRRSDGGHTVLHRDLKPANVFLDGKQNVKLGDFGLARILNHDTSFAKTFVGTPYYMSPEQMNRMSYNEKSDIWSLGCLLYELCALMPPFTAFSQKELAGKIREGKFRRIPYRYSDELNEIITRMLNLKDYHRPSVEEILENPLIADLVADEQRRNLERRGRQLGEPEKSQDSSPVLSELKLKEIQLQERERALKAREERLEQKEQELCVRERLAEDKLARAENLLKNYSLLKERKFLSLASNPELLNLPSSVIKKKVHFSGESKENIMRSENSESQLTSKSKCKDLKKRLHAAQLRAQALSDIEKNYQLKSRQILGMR
Sequence of UniProt Q13557 (whole entry, looked up): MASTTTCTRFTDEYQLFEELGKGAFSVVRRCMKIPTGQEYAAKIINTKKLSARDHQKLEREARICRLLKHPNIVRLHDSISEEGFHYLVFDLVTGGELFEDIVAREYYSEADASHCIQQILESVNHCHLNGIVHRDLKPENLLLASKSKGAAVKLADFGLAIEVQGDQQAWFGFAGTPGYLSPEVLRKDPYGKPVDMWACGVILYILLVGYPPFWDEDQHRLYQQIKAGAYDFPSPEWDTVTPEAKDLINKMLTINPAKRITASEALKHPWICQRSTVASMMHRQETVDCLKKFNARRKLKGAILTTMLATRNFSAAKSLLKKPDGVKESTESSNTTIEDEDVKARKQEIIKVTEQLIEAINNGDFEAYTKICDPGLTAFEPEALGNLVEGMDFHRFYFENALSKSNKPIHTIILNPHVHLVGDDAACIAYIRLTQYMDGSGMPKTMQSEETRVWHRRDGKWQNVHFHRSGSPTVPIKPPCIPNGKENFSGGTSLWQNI
Sequence of UniProt P36897 (whole entry, looked up): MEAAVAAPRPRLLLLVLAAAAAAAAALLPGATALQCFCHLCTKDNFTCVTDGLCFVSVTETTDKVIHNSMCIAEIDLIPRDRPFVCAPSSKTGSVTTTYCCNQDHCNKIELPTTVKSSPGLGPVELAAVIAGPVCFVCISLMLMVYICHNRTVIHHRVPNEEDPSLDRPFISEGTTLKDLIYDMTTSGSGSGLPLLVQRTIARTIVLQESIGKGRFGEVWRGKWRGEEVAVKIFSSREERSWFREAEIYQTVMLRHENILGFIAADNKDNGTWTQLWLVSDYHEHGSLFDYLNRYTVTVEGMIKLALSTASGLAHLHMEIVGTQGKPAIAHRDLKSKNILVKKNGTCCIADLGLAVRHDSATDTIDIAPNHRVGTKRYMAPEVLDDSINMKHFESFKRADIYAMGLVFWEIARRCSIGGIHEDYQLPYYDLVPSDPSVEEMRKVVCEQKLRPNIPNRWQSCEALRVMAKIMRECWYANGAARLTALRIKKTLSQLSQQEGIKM
Sequence of UniProt P35626 (whole entry, looked up): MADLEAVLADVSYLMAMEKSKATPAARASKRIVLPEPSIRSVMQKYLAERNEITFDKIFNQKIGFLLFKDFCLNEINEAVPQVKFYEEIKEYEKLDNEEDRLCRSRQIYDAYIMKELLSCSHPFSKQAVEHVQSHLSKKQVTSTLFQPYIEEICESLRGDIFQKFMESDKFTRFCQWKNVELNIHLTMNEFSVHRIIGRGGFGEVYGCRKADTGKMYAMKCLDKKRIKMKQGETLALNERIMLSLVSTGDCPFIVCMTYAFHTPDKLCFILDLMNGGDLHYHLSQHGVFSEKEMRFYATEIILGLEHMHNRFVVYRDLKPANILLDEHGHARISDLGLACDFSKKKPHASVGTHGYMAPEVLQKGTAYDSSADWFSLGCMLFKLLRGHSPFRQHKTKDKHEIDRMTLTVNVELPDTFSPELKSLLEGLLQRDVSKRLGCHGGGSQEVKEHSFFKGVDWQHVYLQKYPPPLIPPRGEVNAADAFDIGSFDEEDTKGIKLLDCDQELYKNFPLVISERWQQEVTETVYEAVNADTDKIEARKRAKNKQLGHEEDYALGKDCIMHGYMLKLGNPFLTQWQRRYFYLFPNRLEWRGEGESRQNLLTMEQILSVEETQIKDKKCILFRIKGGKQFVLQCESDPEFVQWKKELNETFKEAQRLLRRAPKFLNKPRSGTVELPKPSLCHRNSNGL
Sequence of UniProt Q96RR4 (whole entry, looked up): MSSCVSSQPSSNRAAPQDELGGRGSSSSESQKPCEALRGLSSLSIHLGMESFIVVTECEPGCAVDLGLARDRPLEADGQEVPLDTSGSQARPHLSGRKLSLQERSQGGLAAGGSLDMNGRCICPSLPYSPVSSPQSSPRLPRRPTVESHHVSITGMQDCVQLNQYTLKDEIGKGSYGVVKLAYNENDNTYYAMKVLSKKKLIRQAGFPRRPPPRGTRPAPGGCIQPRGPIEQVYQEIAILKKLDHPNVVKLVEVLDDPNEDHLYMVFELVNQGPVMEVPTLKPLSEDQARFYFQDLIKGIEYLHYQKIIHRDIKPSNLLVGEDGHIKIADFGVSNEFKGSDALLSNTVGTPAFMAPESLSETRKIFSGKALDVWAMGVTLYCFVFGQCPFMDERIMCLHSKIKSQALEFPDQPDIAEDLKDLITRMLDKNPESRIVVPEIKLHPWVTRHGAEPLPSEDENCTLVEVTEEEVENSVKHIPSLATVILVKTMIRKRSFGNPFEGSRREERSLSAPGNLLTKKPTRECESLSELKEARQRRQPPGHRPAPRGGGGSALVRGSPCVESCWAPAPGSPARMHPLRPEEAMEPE
Sequence of UniProt Q00535 (whole entry, looked up): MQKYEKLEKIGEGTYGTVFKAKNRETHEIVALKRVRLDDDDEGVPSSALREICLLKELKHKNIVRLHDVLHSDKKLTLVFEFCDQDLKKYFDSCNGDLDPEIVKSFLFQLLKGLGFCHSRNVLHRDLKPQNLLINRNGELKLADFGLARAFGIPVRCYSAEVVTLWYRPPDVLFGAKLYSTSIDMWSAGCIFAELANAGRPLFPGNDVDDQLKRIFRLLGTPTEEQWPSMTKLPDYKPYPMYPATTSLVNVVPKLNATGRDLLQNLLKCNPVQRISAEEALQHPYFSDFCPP
Sequence of UniProt O14920 (whole entry, looked up): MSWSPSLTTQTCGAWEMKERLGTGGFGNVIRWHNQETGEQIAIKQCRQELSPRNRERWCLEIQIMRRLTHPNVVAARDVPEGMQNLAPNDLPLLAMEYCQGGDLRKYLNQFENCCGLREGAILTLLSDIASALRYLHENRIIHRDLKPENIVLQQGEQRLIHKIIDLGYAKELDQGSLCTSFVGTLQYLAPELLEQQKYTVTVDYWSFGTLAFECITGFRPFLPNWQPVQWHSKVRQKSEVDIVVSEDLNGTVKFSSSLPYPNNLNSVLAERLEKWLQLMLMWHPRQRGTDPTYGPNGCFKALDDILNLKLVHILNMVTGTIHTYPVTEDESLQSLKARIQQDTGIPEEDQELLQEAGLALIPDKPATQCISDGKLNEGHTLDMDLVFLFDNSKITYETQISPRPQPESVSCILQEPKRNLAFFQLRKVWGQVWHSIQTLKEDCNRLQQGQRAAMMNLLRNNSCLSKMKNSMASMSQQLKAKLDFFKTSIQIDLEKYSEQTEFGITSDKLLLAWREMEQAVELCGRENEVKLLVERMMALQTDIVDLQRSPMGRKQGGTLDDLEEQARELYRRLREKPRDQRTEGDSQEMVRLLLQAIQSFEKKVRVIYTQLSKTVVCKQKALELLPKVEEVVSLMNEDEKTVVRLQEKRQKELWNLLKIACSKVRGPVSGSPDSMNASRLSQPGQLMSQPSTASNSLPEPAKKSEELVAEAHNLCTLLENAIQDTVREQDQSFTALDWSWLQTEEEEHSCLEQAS
Sequence of UniProt P11802 (whole entry, looked up): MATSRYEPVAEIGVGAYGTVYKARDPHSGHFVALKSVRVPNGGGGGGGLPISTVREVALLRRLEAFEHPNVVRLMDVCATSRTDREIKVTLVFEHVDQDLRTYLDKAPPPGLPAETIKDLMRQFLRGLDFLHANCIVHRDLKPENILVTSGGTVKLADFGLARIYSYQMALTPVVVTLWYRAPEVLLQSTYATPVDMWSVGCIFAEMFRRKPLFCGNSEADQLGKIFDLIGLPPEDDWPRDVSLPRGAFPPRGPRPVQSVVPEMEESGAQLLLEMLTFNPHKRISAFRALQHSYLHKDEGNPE
Sequence of UniProt Q14164 (whole entry, looked up): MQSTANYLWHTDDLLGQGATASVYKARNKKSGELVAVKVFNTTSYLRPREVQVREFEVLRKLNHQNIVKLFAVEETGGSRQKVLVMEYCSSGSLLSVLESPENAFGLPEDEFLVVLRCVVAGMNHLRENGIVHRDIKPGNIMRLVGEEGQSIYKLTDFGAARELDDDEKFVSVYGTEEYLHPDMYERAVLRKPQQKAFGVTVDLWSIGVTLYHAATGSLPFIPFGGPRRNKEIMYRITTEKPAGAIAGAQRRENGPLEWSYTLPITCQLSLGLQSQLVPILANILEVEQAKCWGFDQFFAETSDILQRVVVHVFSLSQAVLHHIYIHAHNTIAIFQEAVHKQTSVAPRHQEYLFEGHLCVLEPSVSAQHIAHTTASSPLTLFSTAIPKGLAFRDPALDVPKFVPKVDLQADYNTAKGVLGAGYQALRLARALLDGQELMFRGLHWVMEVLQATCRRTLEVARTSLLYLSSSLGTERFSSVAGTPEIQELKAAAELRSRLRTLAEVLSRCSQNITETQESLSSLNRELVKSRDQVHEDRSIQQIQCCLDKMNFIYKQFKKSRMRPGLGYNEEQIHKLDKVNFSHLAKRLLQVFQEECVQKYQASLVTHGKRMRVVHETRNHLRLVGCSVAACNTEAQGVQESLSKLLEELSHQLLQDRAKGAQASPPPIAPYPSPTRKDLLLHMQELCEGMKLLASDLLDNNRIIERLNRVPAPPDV

Block 1 — technique: Incucyte 3D growth; tested at: 30 µM; direction: higher = more growth
SMILES: CC(C)(C(=O)O)[C@H](NC(=O)Cc1cccc(I)c1)c1ccc2oc(=O)[nH]c2c1
cell line | time | spheroid area
A375 | 192.52 h | 1.43e+08 a.u. and 1.51e+08 a.u. and 1.54e+08 a.u. and 1.42e+08 a.u. and 1.35e+08 a.u. and 1.28e+08 a.u.
MEL-JUSO | 30.52 h | 1.04e+07 a.u. and 9.65e+06 a.u. and 1.27e+07 a.u. and 1.15e+07 a.u. and 7.7e+06 a.u. and 1.05e+07 a.u.
MEL-JUSO | 270.52 h | 3.71e+07 a.u. and 1.85e+07 a.u. and 2.05e+07 a.u. and 2.27e+07 a.u. and 2.4e+07 a.u. and 2.13e+07 a.u.
KP-4 | 216 h | 6.04e+07 a.u. and 3.89e+07 a.u. and 3.81e+07 a.u. and 3.95e+07 a.u. and 3.88e+07 a.u. and 1.89e+07 a.u.
KP-4 | 144 h | 2.07e+07 a.u. and 1.99e+07 a.u. and 2.27e+07 a.u. and 1.61e+07 a.u. and 2.22e+07 a.u. and 2.06e+07 a.u.
NCI-H358 | 156 h | 6.82e+06 a.u. and 5.82e+06 a.u. and 6.25e+06 a.u. and 7.99e+06 a.u. and 7.39e+06 a.u. and 5.58e+06 a.u.
A375 | 36 h | 1.68e+07 a.u. and 1.7e+07 a.u. and 1.28e+07 a.u. and 2.06e+07 a.u. and 2.21e+07 a.u.
KP-4 | 222 h | 3.96e+07 a.u. and 1.99e+07 a.u. and 3.86e+07 a.u. and 4.24e+07 a.u. and 4.17e+07 a.u. and 6.55e+07 a.u.

Block 2 — mode: inhibitor; tested at: 10 µM; reference: control
Target: Diamine acetyltransferase 1 (Homo sapiens, UniProt P21673)
Construct (P21673 1-171): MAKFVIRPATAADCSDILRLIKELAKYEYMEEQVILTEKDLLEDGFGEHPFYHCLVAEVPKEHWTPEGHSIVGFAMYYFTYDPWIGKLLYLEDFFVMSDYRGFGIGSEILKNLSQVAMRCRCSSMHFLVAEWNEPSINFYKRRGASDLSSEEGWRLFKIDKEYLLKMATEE
Compound | remaining activity
O=C(O)CCc1ccccc1 | 84.9%
COC(=O)c1c(C)cc(O)c(C)c1O | 102%
CC(C)=CCC/C(C)=C/CO | 86.7%
O=C(/C=C/c1ccccc1)OCc1ccccc1 | 90.5%
C=C1CC[C@@H]2[C@](C)(CO)[C@H](O)CC[C@@]2(C)[C@@H]1C/C=C1/C(=O)OC[C@H]1O | 101%
CC(O)CO (racemic) | 88.3%
CC(C)=CCOc1c2ccoc2c(OCC=C(C)C)c2oc(=O)ccc12 | 103%
CC(C)=CCc1cc2ccc(=O)oc2cc1O | 87.8%

Block 3 — effect on: radioligand binding; technique: radioligand displacement; tested at: 10 µM
Target: Translocator protein (Tspo, Rattus norvegicus, UniProt P16257)
Sequence of UniProt P16257 (whole entry, looked up): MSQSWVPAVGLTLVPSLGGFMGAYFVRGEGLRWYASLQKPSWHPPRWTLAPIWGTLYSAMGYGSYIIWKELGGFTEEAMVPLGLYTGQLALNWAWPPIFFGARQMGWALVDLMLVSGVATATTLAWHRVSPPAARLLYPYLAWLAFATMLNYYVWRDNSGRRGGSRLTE
SMILES | inhibition [%]
CC(=O)Nc1c(F)cc(C(=O)N[C@H]2CC[C@H](O)CC2)cc1O[C@@H](C)c1ccccc1 | 5.68
O=C(N[C@H]1CCCCC/C=C\C2C[C@@]2(C(=O)O)NC(=O)[C@@H]2C[C@@H](Oc3ccncc3)CN2C1=O)OC1CCCC1 (stereo partly drawn) | -11.1
CCOC(=O)c1cc2cc(-c3cc(C(=O)NCc4ccc(C(=O)O)cc4)nn3C)ccc2[nH]1 | -1.91
CN([C@@H]1CCc2c(CC(=O)O)c3cc(S(C)(=O)=O)ccc3n2C1)S(=O)(=O)c1ccc(F)cc1 | 41.4
CC(C)CC(=O)N1CCc2nc(-c3ccc(Br)cc3)nc(N(C)Cc3ccccc3)c2C1 | 41

Block 4 — SMILES: COc1cccc(-c2cc(=O)c3ccccc3o2)c1N; effect on: enzyme activity; mode: inhibitor; tested at: 0.5 µM; reference: control
target | remaining activity
GRK3 (Homo sapiens, UniProt P35626) | 94.7%
IKBKB (Homo sapiens, UniProt O14920) | 92.5%
MAP3K3 (Homo sapiens, UniProt Q99759) | 83%
Cyclin-dependent kinase 4, with cyclin D1 (CDK4, Homo sapiens, UniProt P11802) | 100%
DAPK2 (Homo sapiens, UniProt Q9UIK4) | 107%
PRKCA (Homo sapiens, UniProt P17252) | 102%
Tyrosine-protein kinase Lyn, isoform B (LYN, Homo sapiens, UniProt P07948) | 98.7%
IKBKE (Homo sapiens, UniProt Q14164) | 95.1%
TGFBR2 (Homo sapiens, UniProt P37173) | 115%
CAMK2D (Homo sapiens, UniProt Q13557) | 91.5%
CAMKK2 (Homo sapiens, UniProt Q96RR4) | 92.5%
STK11 (Homo sapiens, UniProt Q15831) | 101%
DAPK1 (Homo sapiens, UniProt P53355) | 90.9%
cGMP-dependent protein kinase 1, isoform beta (PRKG1, Homo sapiens, UniProt Q13976) | 108%
CHEK2 (Homo sapiens, UniProt O96017) | 98.8%
STK10 (Homo sapiens, UniProt O94804) | 90.4%
STK39 (Homo sapiens, UniProt Q9UEW8) | 86.8%
TGFBR1 (Homo sapiens, UniProt P36897) | 94.7%
NEK2 (Homo sapiens, UniProt P51955) | 86.1%
MAPK9 (Homo sapiens, UniProt P45984) | 89.8%
OXSR1 (Homo sapiens, UniProt O95747) | 91.2%
Cyclin-dependent kinase 5, with p25 (CDK5, Homo sapiens, UniProt Q00535) | 87.5%
Protein kinase C beta type, isoform beta-I (PRKCB, Homo sapiens, UniProt P05771) | 98.5%
PRKACA (Homo sapiens, UniProt P17612) | 87.7%

Block 5 — cell line: mouse MPNST tumor cells; technique: high-content nuclear imaging; measured: cell number; tested at: 10 µM; time: 12 h; setting: mean of 2 replicates; reference: plate mean; direction: higher = more cells
SMILES | nuclei count
CCN(Cc1ccncc1)C(=O)C(CO)c1ccccc1 (stereo not drawn) | -0.522 z-score and 0.799 z-score
C=C(CC(=O)OCCCCCCCC)C(=O)O | -0.566 z-score
CCOC1O[C@H]([C@@H](COCc2ccccc2)OCc2ccccc2)[C@H](OCc2ccccc2)[C@H]1O (stereo partly drawn) | 1.92 z-score
C[C@@H]1C[C@H]2[C@@H]3CCC4=CC(=O)C=C[C@]4(C)[C@@]3(F)[C@@H](O)C[C@]2(C)[C@@]1(O)C(=O)CO | 3.88 z-score
CCN(CC)Cc1ccc(C(=O)N(CCc2ccccc2OC)[C@@H]2CCNC2)cc1 | 1.69 z-score
C[C@]12CC[C@@H]3c4ccc(O)cc4C[C@@H](CCCCCCCCC[S+]([O-])CCCC(F)(F)C(F)(F)F)[C@H]3[C@@H]1CC[C@@H]2O (stereo partly drawn) | 4.94 z-score and 2.75 z-score
